Experimental data of several laboratories.
Numbered parts are unrelated; each lists some results of a single study.

Set 1 — method: Spec-seq; molecule type: double-stranded DNA, one strand shown; sample: in vitro; concentration: not given; setting: whole probe, mean of replicates; relative to: not given; reading: lower = stronger binding; constant ends, left off below: GAGTCGTCTCGTCAGCAC … CCGTAGAGCACTCAGGTC
Target: Transcription factor SOX-2, HMG box (Sox2, Mus musculus, UniProt P48432, residues 41-119)
UniProt P48432, sequence (41-119, looked up): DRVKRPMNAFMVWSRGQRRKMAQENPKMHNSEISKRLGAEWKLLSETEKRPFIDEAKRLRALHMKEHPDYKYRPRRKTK
Sequence	relative binding energy
GAAAGTT	0.828 ln ratio
AGGTGTT	0.673 ln ratio
CATCAGG	0.294 ln ratio
GAATGTT	0.305 ln ratio
CTGCGTT	1.22 ln ratio
GGAGGTT	1.39 ln ratio
AACGGTT	-0.589 ln ratio

Set 2 — method: aptamer microarray, sandwich; molecule type: DNA with 2'F-ANA; sample: in vitro; concentration: 200 nM; together with: Cy3 exosite-II aptamer, 400 nM; reading: higher = stronger binding; sequence: GGTTGGTGTGGTTGG
Target: Prothrombin, mature alpha-thrombin (F2, Homo sapiens, UniProt P00734)
Setting: whole 15-mer aptamer, many near background
Modification	mean fluorescence intensity
2'F-ANA at 1 5 7 8 9 11 14 15	56.7 a.u.
2'F-ANA at 1 11 12	365 a.u.
2'F-ANA at 4 7 8 9 10 11 12 15	99.6 a.u.
2'F-ANA at 3 4 6 7 10 11 13 15	194 a.u.
2'F-ANA at 1 2 3 6 9 10 11 12	69.5 a.u.
2'F-ANA at 3 4 5 7 8 10 14 15	48.1 a.u.
2'F-ANA at 1 3 5 6 7 8 9 13	52.7 a.u.
2'F-ANA at 6 7 8 10 12 15	217 a.u.
2'F-ANA at 1 3 7 8 9 10 11 13	78 a.u.
2'F-ANA at 2 4 5 6 7 8 9 11 12	131 a.u.

Set 3 — method: protein-binding microarray; molecule type: double-stranded DNA, one strand shown; sample: in vitro; concentration: 250 nM; setting: 60-bp whole probe; together with: salmon DNA 0.4 mg/ml; relative to: random background probes; reading: higher = stronger binding; constant ends, left off below: GCCTAGCAC … GTCTTGATTCGCTTGACGCTGCTG
Target: Interferon regulatory factor 7, full length, phosphomimetic (IRF7, Homo sapiens, UniProt Q92985, residues 1-503, S101K/S471D/S472D/S475D/S476D/S477D/S483D/S484D/S487D)
Residues (chain): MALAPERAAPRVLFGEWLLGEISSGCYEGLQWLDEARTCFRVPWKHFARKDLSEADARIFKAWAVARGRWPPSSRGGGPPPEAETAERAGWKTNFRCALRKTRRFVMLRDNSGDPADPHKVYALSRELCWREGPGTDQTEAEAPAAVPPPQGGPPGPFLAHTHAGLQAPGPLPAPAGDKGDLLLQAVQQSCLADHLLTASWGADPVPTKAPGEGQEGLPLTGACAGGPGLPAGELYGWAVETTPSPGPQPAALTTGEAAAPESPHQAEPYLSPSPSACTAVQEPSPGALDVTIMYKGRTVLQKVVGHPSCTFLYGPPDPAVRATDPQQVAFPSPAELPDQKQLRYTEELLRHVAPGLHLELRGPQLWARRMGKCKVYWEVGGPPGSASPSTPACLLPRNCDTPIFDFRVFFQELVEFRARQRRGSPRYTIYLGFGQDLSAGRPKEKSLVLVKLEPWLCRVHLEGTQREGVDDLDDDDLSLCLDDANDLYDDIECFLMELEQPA
Sequence	log fluorescence
AGAGCTCTGGCACCTCTAGACGTGCTA	-0.883 z-score
TTGTTTTTCATTATTGTCTCGTGCTAG	2.05 z-score
GACGACTTCAGACTGGAGACGTGCTAG	-0.081 z-score
GACGGTCTCGGTTTGGGGACGTGCTAG	7.11 z-score
GACGATTTCAGTTTCGAGAAGTGCTAG	2.74 z-score
CTAGTTGTGATTCTTTCGATGTGCTAG	1.6 z-score
GACAGTTTCGACACTGGGGACGTGCTA	3.43 z-score
GACGGCCTGCTTTTCCTGACGTGCTAG	-0.144 z-score

Single results of other studies
Substance	target	assay	test system	conditions	scale	endpoint	value
PhoQ, residues 284 288 289 292 302 303 TASMAF	PhoP, residues 12 14 15 18 19 NQGLL (Escherichia coli, UniProt P23836)	Sort-seq, measured: YFP reporter	E. coli	PhoQ-PhoP variant library, together with: 10 µM Mg2+	relative to: high Mg2+ state, higher = stronger signaling	fold induction	2.55

A few entries again (set 3):
Sequence	log fluorescence
GACGGTCTCGGTTTGGGGACGTGCTAG	7.11 z-score
GACGATTTCAGTTTCGAGAAGTGCTAG	2.74 z-score
CTAGTTGTGATTCTTTCGATGTGCTAG	1.6 z-score
